# Measured values gathered from unrelated publications.
# Each line is one published result; not all experiments were run side by side. ± gives the spread as reported.
Compound,test,test system,setting,how to read,measurement,result
CCN1CCN(Cn2nc(C34CC5CC(CC(C5)C3)C4)n(-c3ccccc3)c2=S)CC1,paw oedema,rat,"intraperitoneal, 20 mg/kg",,inhibition in vivo,13.2%
O=c1c(OCc2ccccc2)c(-c2ccc(Cl)cc2)oc2ccccc12,,diabetic rat,"7.5 mg/kg, day 1, p-nitrophenyl β-glucoside induced",,blood glucose,441 ± 4.97 mg/dL
O=C1/C(=C/c2ccc(O)cc2)Oc2c1c(O)cc(O)c2-c1ccc(O)c(O)c1,"DPPH scavenging, absorbance",,,,EC50,80 µM
CC(C)[C@H](NC(=O)CN)C(=O)N[C@@H](CCCCN)C(=O)NCC(=O)N[C@@H](CC(=O)O)C(=O)N[C@@H](CCCCN)C(=O)NCC(=O)N[C@@H](CC(N)=O)C(=O)N1CCC[C@H]1C(=O)NCC(=O)N[C@@H](Cc1c[nH]c2ccccc12)C(=O)N1CCC[C@H]1C(=O)NCC(=O)N[C@@H](C)C(=O)N1CCC[C@H]1C(=O)O,,"B104 neuroblastoma, rat","100 µg/mL coating, peptide-coated plates",baseline: input cells,cell adhesion,18.5%
Cc1cc(O)c(C=O)c2c1C(=O)Oc1c(CO)c(O)c3c(c1O2)C(O)OC3=O (stereo not shown),mating test,"rat male, streptozotocin diabetic",5 mg/kg,,male fertility,65%
COc1cc2c(cc1OC)-c1cc3ccc(OC)c(OC)c3c[n+]1CC2,,"rat, STZ-induced diabetic, serum","oral, 12 mg/kg, day 28",,creatinine,1.09 ± 0.07 mg/dL
Cc1ccc(-c2oc3ccccc3c(=O)c2OCc2ccccc2)cc1,,diabetic rat,"5 mg/kg, day 14, p-nitrophenyl β-glucoside induced",,blood glucose,219 ± 4.9 mg/dL
O=C([O-])CN1CCN(CC(=O)[O-])CCN(CC(=O)NC[C@H]2CC[C@H](C(=O)N[C@H](Cc3cnc4ccccc4c3)C(=O)NCCCC[C@H](NC(=O)N[C@@H](CCC(=O)O)C(=O)O)C(=O)O)CC2)CCN(CC(=O)[O-])CC1.[64Cu+2],,"prostate cancer patients, biopsy cores",below 66 CPM cut-off,,false-negative cores,14%
Cc1cccc(O[C@H]2CCC[C@@H](C(C)CNCc3ccncc3)C2)c1 (relative stereo),,APP/PS1 mouse,"dose not given, chronic treatment",,plasma IFN-γ level,decreased
C[C@@H](O)[C@@H]1NC(=O)[C@H](CCCCN)NC(=O)[C@@H](Cc2ccc(NC(N)=O)cc2)NC(=O)[C@H](Cc2ccc(NC(=O)[C@@H]3CC(=O)NC(=O)N3)cc2)NC(=O)[C@H](NC(=O)[C@H](Cc2ccc(Cl)cc2)NC(=O)CN2CCN(CC(=O)O)CCN(CC(=O)O)CCN(CC(=O)O)CC2)CSSC[C@@H](C(=O)N[C@H](Cc2ccc(O)cc2)C(N)=O)NC1=O [gallium-68 labelled],PET/CT,"human neuroendocrine tumour patients, all lesions",60 min,,SUVpeak,18 ± 19
Nc1nc2cc(CC[C@H]3C[C@@H](n4ccc5c(N)ncnc54)[C@H](O)[C@@H]3O)ccc2cc1Br,"inhibitor, measured: SmD1/3 dimethylarginine","mice, NCI-H1048 xenograft, tumour","10 mg/kg, after stop of treatment",,recovery time,6 days
COc1ccc2c(c1)c(CC(=O)OCC(=O)c1ccccc1)c(C)n2C(=O)c1ccc(Cl)cc1,hot plate test,BALB/c mice,"75 mg/kg, 90 min",,latency of nociceptive response,16.6 ± 1.44 s
CC(C)C[C@H](N)C(=O)N[C@@H](CO)C(=O)N[C@@H](Cc1ccccc1)C(=O)N1CCC[C@H]1C(=O)N[C@H](C(=O)N[C@H](C(=O)N[C@@H](CCCCN)C(=O)N[C@H](C(=O)N[C@@H](Cc1ccc(O)cc1)C(=O)N[C@@H](Cc1ccccc1)C(=O)O)[C@@H](C)O)[C@@H](C)O)[C@@H](C)O,radiotelemetry,mouse AngII-induced hypertension,"intraperitoneal, 5 mg/kg every other day",baseline: saline,systolic blood pressure decrease,~30 mmHg
C=C(c1ncc(C(=O)O)cn1)c1cc2c(cc1C)C(C)(C)CCC2(C)C,"RNA sequencing, measured: Inmt mRNA","rat, brain","dose not given, 24 h, single dose",baseline: vehicle,log2 fold change,-0.82
CSCC[C@@H]1NC(=O)[C@H](CCCCN)NC(=O)[C@H]([C@@H](C)O)NC(=O)[C@H](CCCCN)NC(=O)[C@H](CC(C)C)NC(=O)[C@H](CCCCN)NC(=O)[C@H](CCCNC(=N)N)NC(=O)[C@@H]2CSSC[C@@H]3NC(=O)[C@@H]4CCCN4C(=O)[C@H](C(C)C)NC(=O)[C@H](CCC(N)=O)NC(=O)[C@H](CCC(N)=O)NC(=O)CNC(=O)[C@H](CC(C)C)NC(=O)[C@@H]4CSSC[C@H](NC(=O)[C@H]([C@@H](C)O)NC(=O)[C@H](C)NC(=O)[C@H](CSSC[C@@H](C(=O)N[C@@H](CO)C(=O)N[C@@H](CCCNC(=N)N)C(=O)N[C@H](C(N)=O)[C@@H](C)O)NC(=O)[C@@H]5CCCN5C(=O)[C@H](CC(N)=O)NC1=O)NC(=O)[C@@H]1CCCN1C(=O)[C@H](CC(=O)O)NC(=O)[C@H](CSSC[C@H](NC(=O)[C@H](CCCNC(=N)N)NC(=O)[C@H](CCCNC(=N)N)NC(=O)[C@H](CO)NC(=O)[C@@H](N)CO)C(=O)N[C@@H](C(C)C)C(=O)N[C@@H](CCCNC(=N)N)C(=O)N[C@@H](CC(C)C)C(=O)N[C@@H](Cc1c[nH]cn1)C(=O)N[C@@H](CCC(=O)O)C(=O)N[C@@H](CO)C(=O)N4)NC3=O)C(=O)N[C@@H](Cc1ccc(O)cc1)C(=O)N[C@H]1CSSC[C@H](NC(=O)[C@H](Cc3ccccc3)NC(=O)[C@H](C)NC(=O)[C@H](CC(N)=O)NC(=O)[C@H](Cc3ccccc3)NC(=O)[C@H](Cc3ccccc3)NC(=O)[C@H](CCCNC(=N)N)NC1=O)C(=O)N[C@@H](Cc1ccc(O)cc1)C(=O)N2,,"Long-Evans rat, male","intracerebroventricular, 1.0 nmol in 1.0 µL, 24 h, non-cumulative",baseline: saline,food intake,116 ± 7.5 % above saline
CN(C)C(=O)c1ccnc(N2Cc3cn(Cc4ccc(F)cc4F)nc3C2)n1,measured: Olig2+ cell number,"cuprizone-fed mice, corpus callosum","dose not given, unit not given",baseline: vehicle,effect size d,0.89
CC(=O)Nc1ccc(OC(=O)CCC(=O)[O][Pt-2]23([O]C(=O)CCC(=O)Oc4ccc(NC(C)=O)cc4)([NH2+][C@@H]4CCCC[C@H]4[NH2+]2)[O]C(=O)C(=O)[O]3)cc1,,"BALB/c mouse, 4T1 tumour, tumour",dose not given,,CD3+CD4+ T cells,6.73%
CC[C@H]1[C@@H](O)[C@@H]2[C@H](CC[C@]3(C)[C@@H]([C@H](C)CCOS(=O)(=O)[O-])CC[C@@H]23)[C@@]2(C)CC[C@@H](O)C[C@@H]12.[Na+],"immunohistochemistry, measured: lipid","ob/ob NASH mouse model, liver","3.0 mg/kg, 16 weeks",,fractional area,29.4 ± 1.3%
O=c1cc(-c2ccc(O)cc2)oc2cc(O)c(-c3ccc(O)c(O)c3)c(O)c12,"DPPH scavenging, absorbance",,,,EC50,70 µM
COc1ccc(C2CC(c3ccc(C)cc3)=Nc3ccccc3S2)cc1 (stereo not shown),oral glucose tolerance test,"fasted normal rat, blood","oral, 20 mg/kg, 0 min, added: oral glucose 3 g/kg",,blood glucose,101 ± 4.11 mg/dL
CCc1nnc(NS(=O)(=O)c2ccc(NC(=S)NC(=O)/C=C/c3ccc(F)cc3)cc2)s1,,"athymic nude mice, SK-N-AS xenograft, tumour","i.p., 20 mg/kg daily, 18 days",,reduction of CD31-positive vascular area,87%
Cc1cc2nc(-c3ccco3)[nH]c2cc1C,"ABTS scavenging, absorbance",,,,IC50,1.52 µM
COc1ccc(-c2oc3ccccc3c(=O)c2OCc2ccccc2)cc1,,diabetic rat,"7.5 mg/kg, day 14, p-nitrophenyl β-glucoside induced",,blood glucose,193 ± 4.46 mg/dL
COc1cc(CN2CCN(c3ccccc3F)CC2)c2cc3[n+](cc2c1O)CCc1cc2c(cc1-3)OCO2,"ABTS scavenging, absorbance",,10 min,,IC50,6.46 µg/mL
O=c1c(OCc2ccccc2)c(-c2ccc([N+](=O)[O-])cc2)oc2ccccc12,,diabetic rat,"7.5 mg/kg, day 1, p-nitrophenyl β-glucoside induced",,blood glucose,407 ± 4.99 mg/dL
COc1c2c(cc3oc(C)cc(=O)c13)O[C@H](C(C)(C)O[C@@H]1O[C@H](CO)[C@@H](O)[C@H](O)[C@H]1O)C2,analgesic effect,mouse,"oral, 1 mg/kg, 1 h",,hot plate latency,9.55 ± 1.89 s
CN(C)c1ccc(-c2oc3ccccc3c(=O)c2OCc2ccccc2)cc1,,diabetic rat,"5 mg/kg, day 21, p-nitrophenyl β-glucoside induced",,blood glucose,170 ± 4.63 mg/dL
CCOC(=O)c1cc2cc(-c3cc(C(=O)NCc4ccc(C(=O)O)cc4)nn3C)ccc2[nH]1,,"female B10.RIII mice, antibody-induced arthritis","oral, 100 mg/kg twice daily, day 14, dosing from day 4",baseline: vehicle,arthritic score,decreased

# For quick reference, copied from above:
Compound,test,test system,setting,how to read,measurement,result
C=C(c1ncc(C(=O)O)cn1)c1cc2c(cc1C)C(C)(C)CCC2(C)C,"RNA sequencing, measured: Inmt mRNA","rat, brain","dose not given, 24 h, single dose",baseline: vehicle,log2 fold change,-0.82
CSCC[C@@H]1NC(=O)[C@H](CCCCN)NC(=O)[C@H]([C@@H](C)O)NC(=O)[C@H](CCCCN)NC(=O)[C@H](CC(C)C)NC(=O)[C@H](CCCCN)NC(=O)[C@H](CCCNC(=N)N)NC(=O)[C@@H]2CSSC[C@@H]3NC(=O)[C@@H]4CCCN4C(=O)[C@H](C(C)C)NC(=O)[C@H](CCC(N)=O)NC(=O)[C@H](CCC(N)=O)NC(=O)CNC(=O)[C@H](CC(C)C)NC(=O)[C@@H]4CSSC[C@H](NC(=O)[C@H]([C@@H](C)O)NC(=O)[C@H](C)NC(=O)[C@H](CSSC[C@@H](C(=O)N[C@@H](CO)C(=O)N[C@@H](CCCNC(=N)N)C(=O)N[C@H](C(N)=O)[C@@H](C)O)NC(=O)[C@@H]5CCCN5C(=O)[C@H](CC(N)=O)NC1=O)NC(=O)[C@@H]1CCCN1C(=O)[C@H](CC(=O)O)NC(=O)[C@H](CSSC[C@H](NC(=O)[C@H](CCCNC(=N)N)NC(=O)[C@H](CCCNC(=N)N)NC(=O)[C@H](CO)NC(=O)[C@@H](N)CO)C(=O)N[C@@H](C(C)C)C(=O)N[C@@H](CCCNC(=N)N)C(=O)N[C@@H](CC(C)C)C(=O)N[C@@H](Cc1c[nH]cn1)C(=O)N[C@@H](CCC(=O)O)C(=O)N[C@@H](CO)C(=O)N4)NC3=O)C(=O)N[C@@H](Cc1ccc(O)cc1)C(=O)N[C@H]1CSSC[C@H](NC(=O)[C@H](Cc3ccccc3)NC(=O)[C@H](C)NC(=O)[C@H](CC(N)=O)NC(=O)[C@H](Cc3ccccc3)NC(=O)[C@H](Cc3ccccc3)NC(=O)[C@H](CCCNC(=N)N)NC1=O)C(=O)N[C@@H](Cc1ccc(O)cc1)C(=O)N2,,"Long-Evans rat, male","intracerebroventricular, 1.0 nmol in 1.0 µL, 24 h, non-cumulative",baseline: saline,food intake,116 ± 7.5 % above saline
CN(C)C(=O)c1ccnc(N2Cc3cn(Cc4ccc(F)cc4F)nc3C2)n1,measured: Olig2+ cell number,"cuprizone-fed mice, corpus callosum","dose not given, unit not given",baseline: vehicle,effect size d,0.89
CC(=O)Nc1ccc(OC(=O)CCC(=O)[O][Pt-2]23([O]C(=O)CCC(=O)Oc4ccc(NC(C)=O)cc4)([NH2+][C@@H]4CCCC[C@H]4[NH2+]2)[O]C(=O)C(=O)[O]3)cc1,,"BALB/c mouse, 4T1 tumour, tumour",dose not given,,CD3+CD4+ T cells,6.73%
